# Measured values of several laboratories.
# A part holds a random share of what one study measured. Positions count from the first letter of the parent shown.

# Block 1 — target: MAFK, bZIP domain (human); method: DHFR protein complementation; matrix: yeast; relative to: wild-type JUN-FOS pair; direction: higher = stronger binding
# Notes: single substitutions, most at no-binding floor
# Starting sequence: JUN, bZIP domain (human); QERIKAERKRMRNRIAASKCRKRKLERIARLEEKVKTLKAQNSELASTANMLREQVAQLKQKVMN; partner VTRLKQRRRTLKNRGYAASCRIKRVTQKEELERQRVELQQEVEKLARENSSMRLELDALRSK
Change,binding fitness [natural log]
E33H,-1.55
Q55L,-1.45
E32P,-1.57
S47Q,-1.44
Q58H,-1.41
V35L,-1.46
I28R,-1.49
K34T,-1.53
R30F,-1.6
L59C,-1.47
R30G,-1.44
L45R,-1.5
A46N,-1.31
S43D,-1.5
S47W,-1.52
L52G,-1.48

# Block 2 — target: CCNE1, cyclin fold, Cln2 fusion (human); method: yeast growth competition, sequencing; matrix: yeast; notes: strong parent motif; relative to: not given; direction: higher = stronger binding
# Starting sequence: CDKN1A docking peptide (human); SKACRRLFGPVDS; partner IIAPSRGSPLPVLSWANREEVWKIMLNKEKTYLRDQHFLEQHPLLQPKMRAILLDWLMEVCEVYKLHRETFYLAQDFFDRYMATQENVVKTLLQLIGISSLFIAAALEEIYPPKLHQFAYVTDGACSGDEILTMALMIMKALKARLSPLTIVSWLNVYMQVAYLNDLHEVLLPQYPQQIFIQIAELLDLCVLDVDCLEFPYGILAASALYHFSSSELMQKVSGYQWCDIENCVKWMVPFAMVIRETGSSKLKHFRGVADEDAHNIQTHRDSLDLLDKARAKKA
Change,normalised enrichment score
SKACSRLFGPVDS [R5S],0.033
SKAIRRLFGPVDS [C4I],2.78
SAACRRLFGPVDS [K2A],4.5
SKACRRLWGPVDS [F8W],3.83
SKACRRLFGMVDS [P10M],3.86
SKACRRLAGPVDS [F8A],-0.0224
SKACRRLFGPWDS [V11W],5.72
SKACRRLFGPVLS [D12L],3.65
SKACRRLFDPVDS [G9D],5.89
SKAYRRLFGPVDS [C4Y],0.0681
SKACRRLFFPVDS [G9F],5.86
SKACRRLFCPVDS [G9C],5.09
SKACARLFGPVDS [R5A],0.445
SKACRRLYGPVDS [F8Y],0.939
SKACRRLFGNVDS [P10N],5.42
SDACRRLFGPVDS [K2D],4.92
SKACRCLFGPVDS [R6C],3.19

# Block 3 — method: DHFR PCA, deep sequencing; matrix: yeast; together with: (+)-ABA 0.0091 µM; relative to: wild-type fitted maximum; direction: higher = stronger binding
# Target: ABI1, truncated, D143A, DHFR fusion (Arabidopsis thaliana)
# Notes: methotrexate growth selection, single substitutions
# Starting sequence: PYL1, truncated, DHFR fusion (Arabidopsis thaliana); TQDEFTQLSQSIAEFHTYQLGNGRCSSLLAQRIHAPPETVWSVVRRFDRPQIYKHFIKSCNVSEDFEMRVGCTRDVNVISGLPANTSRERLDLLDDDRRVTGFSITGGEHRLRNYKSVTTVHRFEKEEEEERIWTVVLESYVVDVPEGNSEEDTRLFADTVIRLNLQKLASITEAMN; partner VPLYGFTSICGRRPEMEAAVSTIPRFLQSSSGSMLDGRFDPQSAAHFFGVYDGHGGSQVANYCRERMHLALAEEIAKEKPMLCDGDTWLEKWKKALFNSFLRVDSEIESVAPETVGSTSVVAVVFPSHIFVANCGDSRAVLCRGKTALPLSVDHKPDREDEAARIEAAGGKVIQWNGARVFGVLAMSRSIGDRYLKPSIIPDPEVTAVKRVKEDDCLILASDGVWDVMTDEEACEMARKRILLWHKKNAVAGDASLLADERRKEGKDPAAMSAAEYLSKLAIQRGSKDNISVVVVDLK
Change,relative binding score [%]
V78T,29.6
F103G,-5.89
T6L,37.4
R49C,29.9
C60N,-0.567
P146S,13.4
V40E,-2.9
H122V,-6.12
P146R,2.22
Q2N,29.1
D48Y,5.84

# Block 4 — method: universal PBM; form: double-stranded DNA, one strand shown; matrix: in vitro; concentration: 600 nM; direction: higher = stronger binding
# Target: Sal-like protein 4, full length isoform A (SALL4, Homo sapiens, UniProt Q9UJQ4, residues 1-1053)
# UniProt Q9UJQ4, sequence (whole entry, looked up): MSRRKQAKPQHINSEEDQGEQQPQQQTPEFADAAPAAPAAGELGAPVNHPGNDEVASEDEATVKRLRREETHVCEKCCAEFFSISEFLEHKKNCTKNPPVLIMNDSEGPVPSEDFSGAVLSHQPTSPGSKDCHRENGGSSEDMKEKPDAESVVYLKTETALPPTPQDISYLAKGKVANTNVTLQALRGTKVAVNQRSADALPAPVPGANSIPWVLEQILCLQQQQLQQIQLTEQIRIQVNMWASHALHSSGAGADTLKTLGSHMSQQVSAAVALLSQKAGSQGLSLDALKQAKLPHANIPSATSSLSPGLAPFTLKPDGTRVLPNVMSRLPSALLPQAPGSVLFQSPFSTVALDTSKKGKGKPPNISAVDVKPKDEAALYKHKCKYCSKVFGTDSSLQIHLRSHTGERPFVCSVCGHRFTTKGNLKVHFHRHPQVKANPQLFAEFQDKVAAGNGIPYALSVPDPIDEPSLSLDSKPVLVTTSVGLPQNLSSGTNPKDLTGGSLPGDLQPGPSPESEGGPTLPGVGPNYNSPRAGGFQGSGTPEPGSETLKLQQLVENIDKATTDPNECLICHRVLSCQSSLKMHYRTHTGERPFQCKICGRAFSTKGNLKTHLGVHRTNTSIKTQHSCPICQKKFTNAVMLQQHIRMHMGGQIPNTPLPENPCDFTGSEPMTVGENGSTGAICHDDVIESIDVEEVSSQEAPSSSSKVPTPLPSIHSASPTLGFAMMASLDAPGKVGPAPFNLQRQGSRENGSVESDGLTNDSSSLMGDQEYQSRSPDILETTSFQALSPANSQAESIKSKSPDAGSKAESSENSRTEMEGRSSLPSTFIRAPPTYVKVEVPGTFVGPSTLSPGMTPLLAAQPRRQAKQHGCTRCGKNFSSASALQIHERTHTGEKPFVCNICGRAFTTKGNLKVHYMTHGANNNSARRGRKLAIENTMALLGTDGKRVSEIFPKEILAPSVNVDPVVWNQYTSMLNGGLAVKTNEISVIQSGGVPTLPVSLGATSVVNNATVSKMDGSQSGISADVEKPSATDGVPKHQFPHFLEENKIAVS
# Notes: 8-mer, flanks averaged, mean of replicates
Oligonucleotide,E-score
GATAGACC,-0.0285
AGATCGCG,-0.254
CCCGGAGA,-0.275
GAGGGTGC,-0.341
CACCTACC,-0.143
CGAAGATC,0.0216
ACTGATTG,-0.0348
AACTTTAA,0.257
ACAAGGGC,-0.281
CCAGCTGA,-0.125
AACCCATT,0.124
GCGCCGAC,-0.223
AGTTTCCA,0.189
CCACTCGC,-0.274
GAGCCCGA,-0.18
ACCAGAGA,0.0504
ACACTGCG,-0.223

# Block 5 — method: RNA Bind-n-Seq; form: RNA; matrix: in vitro; concentration: 365 nM; relative to: no-protein control; direction: higher = stronger binding
# Target: RNA binding protein fox-1 homolog 2, RRM domain, GST-SBP tag (RBFOX2, Homo sapiens, UniProt O43251-10, residues 100-194)
# Notes: natural RNA segment, single round, ends assumed
# All sequences stand within: GGGAGUUCUACAGUCCGACGAUC … UGGAAUUCUCGGGUGCCAA
# Construct (chain): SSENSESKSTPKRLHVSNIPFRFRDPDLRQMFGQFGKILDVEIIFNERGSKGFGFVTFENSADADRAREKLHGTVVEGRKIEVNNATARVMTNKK
Oligonucleotide,RBNS enrichment (R)
AGCCUGGUUUCUGGUUGUGUUCUUCACUCAGGCCUCCAUGGGCAACAAUGGUUUCAGGAGAACUGUUUGUUUCUGUGUGAAUUGAGUUGACACACUCCAGUCCUGAGCUG,0.343
UGGAGUCAAAACACUUGUAAUUUUGUAUCUUGAUGUCUUUGUUAAGACUGCUGAAGAAUUAUUUUUUUUCUUUUAUAAUAAGGAAUAAACCCCACCUUUAUUCCUUCAUU,0.502
ACAGUUUUCAAAAAUAAAGAAAAGUAGGUCCUAAUGAUGUAUUGCUUCCCCGAAAUGGUAUCACACAGGUCAUCCAUGAAUCGCUGUAGUGGCUAGGGGUAUGUGGGACU,0.634
AAAAAGCAUGUGAAAGUGCACUUAAGAUAGAGUUUUUAUUAAUUACUUACUUAUUACCUAGAUUUUAAAUAGACAAUCCAAAGUCUCCCCUUCGUGUUGCCAUCAUCUUG,1.15
GCGAAGCCAUGCUGGGCGGGAGCUGCACCUGCUGGCGUGGCUCUUCUCACUGAGCUCCUCGCCCCAAAUAUCCCGGUGCUGCCCCUGCUGUCCAGGCUCCAGUGUGACAA,0.466
CUGUGGUGGAAGAGGGCACGACAGUGCCAGCGCAGCGUUCUGGGCUCCUCAGUCGCAGGGGUGGGAUGUGAGUCAUGCGGAUUAUCCACUCGCCACAGUUAUCAGCUGCC,0.508
UUCACAUUACAAUAAUAUGUGUAGUAGUUGAAUUGUGUUAUCAAAGCAUGUCCAACUUCUGUCCAGAUGACAUUAAAACCAAAGCCUAAUUGUUAAGCCUCUUAUUCUAA,4.29
UACUCAUGCUGUUACUGUACUUAUGCACCAUUCAGACUUGUUAGAGUAGAUGUGGGUUUAUGACUGCCAAGUUUGCCCAGUACAGUAGUUUUUUAUCACUAAAAGUUGGA,0.713
UUCCCACUAGAAAAGGCGCUCCUGUGGUGGCCACCUCUGUCUUCCUACUGAGAACUUCCUGUUCCAGGUUUUAGAAUUUUCUUAUUGUCGUUAGGACCAAAUGUAGACUG,0.529
UCAUAACUAGACUUGAGUGGGCUGAAUAAACCACUUCACUAACUUGAAGUUCAAAAGGAUGGAAAAUGUCUUGGUUUGAUCUGUGGACUGCUGCUUUUCUGAUCGUUAUU,0.688
UGUAGAAAACAAAAUGGAUAAAAUCUGAUAUGUAUUGUUUGGGAUCCUAUUGAACCAUGUUUGUGGCUAUUAAAACUCUUUUAACAGUCUGGGCUGGGUCCGGUGGCUCA,4.2
AUCAGAGGGCCAAGCAGAGUUCUUUUGGAUACCUGCUUUUCAUCCCACAGGGCCUUAGAGUCAGAGGUAAGGUAGCAACAGAGCUAGAAUGGGGCAAUGCACUCUUACCC,0.708
